Measurements pooled from the literature.
Each numbered part is a random draw from the data of one study; scales do not carry over between parts. “And” joins repeats or separate records; there may be more than shown. Positions count from the first letter of the parent shown.

Series 1
Target: Sal-like protein 4, full length isoform B (SALL4, Homo sapiens, UniProt Q9UJQ4-2, residues 1-616)
Technique: universal PBM
Molecule type: double-stranded DNA, one strand shown
Matrix: in vitro
Tested at: not given
Setting: 8-mer, flanks averaged, mean of replicates
Direction: higher = stronger binding
The E-score of `ATTCGTCC` is reported as 0.149.
With `CCCTGCTA` the E-score was -0.219.
The E-score of `AGATTGGC` is reported as -0.157.
The E-score of `CGCTTCTC` is reported as -0.245.
For `ACATCAGG`, the E-score was 0.0985.
`CGGCAATC` gave an E-score of -0.226.
The E-score of `ACTGCTAA` is reported as 0.0108.
With `AAGGCATT` the E-score was -0.00876.
For `AGACTCAT`, the E-score was 0.126.
With `CCATAGAG` the E-score was -0.0544.
`GATTACTA` has an E-score of 0.148.
For `AGGGTGAG`, the E-score was -0.208.
With `CTACACGA` the E-score was 0.0971.
`CTTTGTCA` gave an E-score of 0.141.
With `AAATGGTG` the E-score was 0.2.
For `ATGAAGTC`, the E-score was 0.0014.
The E-score of `ATAAGGAG` is reported as 0.12.
The E-score of `TCACGTAA` is reported as 0.176.
`TAGAGAGA` gave an E-score of -0.0212.
`CGCATCGA` gave an E-score of -0.0387.
`CAGCTTGA` gave an E-score of -0.0955.
`AGGTTCGG` has an E-score of -0.158.
The E-score of `ATTTCTTA` is reported as 0.27.
`AGAGGATA` gave an E-score of 0.166.
With `ATCCCACC` the E-score was -0.273.

Series 2
Target: RNA binding protein fox-1 homolog 2, RRM domain, GST-SBP tag (RBFOX2, Homo sapiens, UniProt O43251-10, residues 100-194)
Technique: RNA Bind-n-Seq
Molecule type: RNA
Matrix: in vitro
Tested at: 365 nM
Setting: natural RNA segment, single round, ends assumed
Relative to: no-protein control
Direction: higher = stronger binding
Shared flanks, not repeated: GGGAGUUCUACAGUCCGACGAUC … UGGAAUUCUCGGGUGCCAA
Construct (chain): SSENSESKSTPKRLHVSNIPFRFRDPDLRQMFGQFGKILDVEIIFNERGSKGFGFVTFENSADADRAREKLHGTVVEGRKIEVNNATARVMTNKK
`CACACAAGUGAAAAGCUCCCUGCUUUGAAAACAGGACAUGUUGACAGGCAGCAUGGUAUGUUUUUAGCCUUUGUUACAGUUUUAGCAACAUUGAUGUCUAAGAGGGGCCG` — result for “RBNS enrichment (R)”: 1.45.
`UCACAGUAAGGCUGAACUCUGAAAACUAUCCAUUAGAGCUCUGGUUCUGGGUGGGGAUAAGGAUGGGAGGAGAAAGGUUGAGACCUUGGUCUGGCUGUACUGGCAACGCG`: “RBNS enrichment (R)” 0.521.
Under “RBNS enrichment (R)”, `AUAAUAUGUAUAAUUUGAAUUUUUUGUGACUGAUCCUUGGCAGUAUAAAUGAUAAAAGUAAAUGUAAUGGAAUCUUUUAAUUAGGCUAAGAUAUGCUAUUUCAUAACUUA` is recorded as 1.12.
`CAGCUACUCGGGAGGCUGAGGCAGGAAGAAUCACUUGAACCCAGGAGGCGGAGGUUGCAGUGUGCCAAGAUCAUACCACUGCACUCCAGCCCUGGUGACAGAGGAGACCC`: “RBNS enrichment (R)” 0.589.
`UUUUGCCACAGACUUUGAAGAAACUUUUGGAUGUGGGGCAUCAUCCGCAUCUUUCUCUCUCCUCCAAAUGACAAAGUUUGGGGAAUUUUUGAAUUUUCCUAGCAUCGCCC`: “RBNS enrichment (R)” 1.83.
`AGUGAACAGGAAAGGGUCACGUGGUCCCAUGUUGCAACAGCCCCAACAUCACGCAUGUCAUUCACUGCCUUGCCACUCCAUCUCCCUCCGUGCUCCAGCCACCCCUGAGC`: “RBNS enrichment (R)” 4.59.
Under “RBNS enrichment (R)”, `GAUCAUUUAGGACAUUAUCACAAGUUGCUAUGGAAAUAACUGAAGACUUCCUCAGGAGAAGGAAAGAAAAUGAGGAACAUAAUGAUAGAGUCGGGGAACUCCCACUAGCU` is recorded as 0.979.
Under “RBNS enrichment (R)”, `GGUUGGCAGGGCUGCCAUCCCAGCUGGCCGGAAAGAGGCUGUGGUUUCGAAUAUGCAGAUGGCCUUGGAGCCUUAAGACAGGUGCCGGGCUGGCUGCAGACAGGGUGGCU` is recorded as 0.339.
Under “RBNS enrichment (R)”, `GCAAGCCUAGUUGUGCUUUUUGUUGUCUGUUCCCCGUGCCCCCUCCUGUGUCUCACUCUGUCUUCUUGUCACUUGAUGUGCAUUUGCUGUUGUUCUUUCGUUUCUGUCUA` is recorded as 1.23.
`UUUGGGUAUUUCUUCAGCAGGUCCCAAUCUACUGGUACCAAUUUACUGUAUUAGUCCGUUUUCACGCUGCUGAUAAAGACAUACCCGAGACUGGGAAGAAAAAGUGGUUU`: “RBNS enrichment (R)” 0.367.
`UUGGUUUUGUUGGAGAGUGUCAGACUGAUCUGGAAGUGAAACACAGUUUAUGUACAGGGAAAAGGAUUUUAUUAUCCUUAGGAAUGUCAUCCAAGACGUAGAGCUUGAAU` — result for “RBNS enrichment (R)”: 0.861.
`UUUUUAUGCUGCUUUCUUACAUAGUUUCUCUUCAUUUUCACUUAACUCUGAAGACAACCAAAAGAACGGAUCAAUUAAAAACUGAUUCCACUUAUAACCAUUGUAUGCUC` — result for “RBNS enrichment (R)”: 0.321.

Series 3
Target: CCNB3, cyclin fold, Cln2 fusion (human)
Technique: yeast growth competition, sequencing
Matrix: yeast
Setting: strong parent motif
Relative to: not given
Direction: higher = stronger binding
Starting sequence: E2F1 docking peptide (human); PPVKRRLDFETDH; partner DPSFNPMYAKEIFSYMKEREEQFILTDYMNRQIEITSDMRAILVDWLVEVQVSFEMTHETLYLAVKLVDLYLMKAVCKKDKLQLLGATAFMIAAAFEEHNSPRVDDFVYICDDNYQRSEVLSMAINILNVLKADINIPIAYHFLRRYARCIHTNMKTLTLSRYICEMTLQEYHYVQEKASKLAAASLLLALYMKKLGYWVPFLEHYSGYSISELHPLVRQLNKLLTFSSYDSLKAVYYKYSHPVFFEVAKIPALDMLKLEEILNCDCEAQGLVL
`PKVKRRLDFETDH [P2K]` — result for “normalised enrichment score”: 1.95.
Under “normalised enrichment score”, `PPVQRRLDFETDH [K4Q]` is recorded as 0.689.
Under “normalised enrichment score”, `PPVKRRLDFETKH [D12K]` is recorded as 3.25.
`PWVKRRLDFETDH [P2W]`: “normalised enrichment score” 1.63.
`PPVKERLDFETDH [R5E]` — result for “normalised enrichment score”: -0.344.
Under “normalised enrichment score”, `PPVKRRLPFETDH [D8P]` is recorded as 0.499.
`PPVKRRLDFECDH [T11C]` — result for “normalised enrichment score”: 2.43.
`PPWKRRLDFETDH [V3W]` — result for “normalised enrichment score”: 0.743.
`PPQKRRLDFETDH [V3Q]`: “normalised enrichment score” 0.18.
Under “normalised enrichment score”, `PTVKRRLDFETDH [P2T]` is recorded as 1.72.
For `PPVKRRLDFETGH [D12G]`, “normalised enrichment score” read 3.13.
Under “normalised enrichment score”, `PPVKRRMDFETDH [L7M]` is recorded as -0.0318.
Under “normalised enrichment score”, `PPVKRRLDFETPH [D12P]` is recorded as 3.52.
`PPCKRRLDFETDH [V3C]` — result for “normalised enrichment score”: 2.5.
`PPVKRRLDFQTDH [E10Q]` — result for “normalised enrichment score”: 2.02.
For `PPVKRRLDKETDH [F9K]`, “normalised enrichment score” read -0.0185.
For `PPVKRRLDFETMH [D12M]`, “normalised enrichment score” read 3.09.
For `PPVGRRLDFETDH [K4G]`, “normalised enrichment score” read 0.348.
Under “normalised enrichment score”, `PPVKRRVDFETDH [L7V]` is recorded as 0.19.

Series 4
Target: TAR DNA-binding protein 43, full length, His tag (TARDBP, Homo sapiens, UniProt Q13148, residues 1-414)
Technique: RNA Bind-n-Seq
Molecule type: RNA
Matrix: in vitro
Tested at: 20 nM
Setting: 6-mer, flanks averaged, single round
Added: 150 mM LiCl
Relative to: input library
Direction: higher = stronger binding
`GUAUCU`: “6-mer enrichment (R)” 0.902.
For `CUAUAG`, “6-mer enrichment (R)” read 0.866.
`CUAGGU`: “6-mer enrichment (R)” 0.914.
`GCCACA`: “6-mer enrichment (R)” 0.942.
For `GAGCCA`, “6-mer enrichment (R)” read 0.92.
For `UAACCA`, “6-mer enrichment (R)” read 0.861.
`GCCGAU`: “6-mer enrichment (R)” 0.899.
`CGCUAA` — result for “6-mer enrichment (R)”: 0.846.
For `GACAGC`, “6-mer enrichment (R)” read 0.876.
`CAGAAA` — result for “6-mer enrichment (R)”: 0.809.
`UAGUAU` — result for “6-mer enrichment (R)”: 1.04.
Under “6-mer enrichment (R)”, `UUUUGG` is recorded as 1.35.

Series 5
Target: Histone acetyltransferase KAT6A, winged helix 2, GST fusion (KAT6A, Homo sapiens, UniProt Q92794, residues 85-181)
Technique: protein binding microarray
Molecule type: double-stranded DNA, one strand shown
Matrix: in vitro
Tested at: not given
Setting: 8-mer, flanks averaged, mean of 2 arrays, mostly near background
Relative to: not given
Direction: higher = stronger binding
Target sequence (chain): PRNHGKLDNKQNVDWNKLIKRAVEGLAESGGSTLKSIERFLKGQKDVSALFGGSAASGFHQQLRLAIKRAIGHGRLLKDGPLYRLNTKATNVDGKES
For `ATTGGCAC`, the E-score was 0.0267.
`GATTCTAA` has an E-score of 0.132.
With `GGCCCTTA` the E-score was -0.0135.
With `CCTCACGA` the E-score was -0.0274.
The E-score of `GACTAATC` is reported as 0.14.
The E-score of `AAGCGTCC` is reported as 0.00584.
The E-score of `GAAGTTCC` is reported as -0.186.
`CCATTTAC` has an E-score of -0.141.
For `CCCGGCGC`, the E-score was 0.225.
`CAGTTGAG` gave an E-score of -0.141.
For `CAGCCTCC`, the E-score was 0.0504.
The E-score of `AGGAGACC` is reported as -0.108.
`GGTCCATA` has an E-score of -0.163.
The E-score of `AAAAACAT` is reported as -0.143.
With `ACCATTAA` the E-score was 0.0494.
The E-score of `CATTAGTC` is reported as -0.152.
The E-score of `AACAGACG` is reported as -0.121.
`CTACGAGA` gave an E-score of -0.0774.
For `ACAGCTCT`, the E-score was -0.181.

Single results of other studies
For `PhoQ, residues 284 288 289 292 302 303 AGHLVA`, the fold induction was 5.61 and 2.67 (PhoP, residues 12 14 15 18 19 LWHSL (Escherichia coli, UniProt P23836); Sort-seq, measured: YFP reporter; E. coli; PhoQ-PhoP variant library, added: 10 µM Mg2+; relative to: high Mg2+ state, higher = stronger signaling).

Excerpt of the above (series 3):
`PPCKRRLDFETDH [V3C]` — result for “normalised enrichment score”: 2.5.
For `PPVKRRLDKETDH [F9K]`, “normalised enrichment score” read -0.0185.
Under “normalised enrichment score”, `PPVKRRLDFETPH [D12P]` is recorded as 3.52.
Under “normalised enrichment score”, `PPVKRRMDFETDH [L7M]` is recorded as -0.0318.
`PPVKRRLDFECDH [T11C]` — result for “normalised enrichment score”: 2.43.
Under “normalised enrichment score”, `PTVKRRLDFETDH [P2T]` is recorded as 1.72.
For `PPVKRRLDFETMH [D12M]`, “normalised enrichment score” read 3.09.
Under “normalised enrichment score”, `PPVKRRLPFETDH [D8P]` is recorded as 0.499.
